# Experimental data gathered from unrelated publications.
# Protocols differ between the studies behind these lines. Several values in a cell are separate wells, animals, samples, runs or records. Numbers after ± are the reported error.
Compound,test,system,setting,how to read,endpoint,value
N.N.[Cl][Pt][Cl],,"KSN/Slc nude mice, SAS xenograft","dose not given, day 10",,tumour volume,214 mm3 and 490 mm3 and 129 mm3 and 299 mm3 and 277 mm3 and 110 mm3 and 308 mm3 and 91.2 mm3
Cc1cccc(C)c1NC(=O)C1CCCCN1 (stereo not drawn),hot plate,"Sprague-Dawley rat, male, sciatic nerve",22.5 mM,,sensory maximum possible effect,100%
CN1CCN(S(=O)(=O)c2cc([N+](=O)[O-])ccc2N(CCOS(C)(=O)=O)CCOS(C)(=O)=O)CC1,,"NSG mice, sample DA PDX","intraperitoneal, 25 mg/kg weekly x3",baseline: treated over vehicle,EFS ratio (T/C),> 55.4
O=C(O)CNC(=O)c1cc2ccccc2n1Cc1ccc(C2CC2)c2ccccc12,,"mouse, acute hyperuricaemia model, serum","oral, 2 mg/kg, first screening",,serum uric acid,436 µM
c1cncc([C@@H]2CCCN2)c1,drug discrimination acquisition,drug-naive rat,"2 mg/kg, pretreatment",baseline: saline,response rate,increased
C[C@H](NC(=O)c1c(C(F)F)nn(C)c1Oc1cccc(C(F)(F)F)c1)c1ccc(C(=O)O)cc1,,"human, advanced tumours",250 mg,,deaths,12.5%
Cc1cc(-c2nc(C(=O)Nc3cc4oc(N5CCOCC5)nc4nc3N3CC[C@@H](O)C3)co2)ccn1,,"mouse, B16-F10 melanoma brain metastasis",100 mg/kg,baseline: vehicle,mean overall survival increase,35%
CC[C@H](C)[C@@H]1NC(=O)[C@@H]2CCCN2C(=O)[C@H](CC(C)C)NC(=O)[C@H](CC(C)C)NC(=O)CNC(=O)[C@@H](NC(=O)[C@@H](NC(=O)[C@H](CC(=O)O)NC(=O)CNC(=O)[C@@H](NC(=O)[C@H](C)NC(=O)CNC(=O)[C@H](CCCCN)NC(=O)[C@H](CC(C)C)NC(=O)[C@H](CC(C)C)NC(=O)[C@H](CCCCN)NC(=O)CNC(=O)[C@@H](NC(=O)[C@@H](N)CC(C)C)C(C)C)C(C)C)C(C)C)CSSC[C@@H](C(=O)O)NC1=O,"RNA-seq, refers to: Rab20","mouse, traumatic brain injury model, frontal cortex and hippocampus",dose not given,baseline: TBI alone,log2 fold change,-2.92
CS(=O)(=O)c1ccc(-c2nnc(/C=C/c3nnc(-c4ccc(C#N)cc4)o3)n2-c2ccccc2Cl)nc1,"RNA-seq GSEA, refers to: FALLER_STEM_MOUSE","organoids, small intestinal, Apc Q1405X, mouse","dose not given, wild-type organoids","baseline: DMSO, direction not given",normalized enrichment score,-2.41
Cn1ncc(-c2nc(N[C@H]3CC[C@H](N)CC3)ncc2Cl)c1CC1CC1,phase I clinical trial,R/R AML or high-risk MDS patients,"dose not given, intent-to-treat",,CRi rate,10%
CCCCC1(CCCC)CN(c2ccccc2)c2cc(SC)c(OCC(=O)N[C@@H](C(=O)NCC(=O)O)c3ccccc3)cc2S(=O)(=O)C1,refers to: LDL cholesterol,"human, serum","15 mg once daily, day 11",,serum LDL-C,72.5 mg/dL
CCCCCCCCCCCCCC1OC(=O)/C1=C\CCCCC(N)=O (stereo not drawn),"enzyme activity, inhibitor",membrane proteomes of lymphoblastoid cell lines,"1 µM, 30 min, 37 °C",,PS lipase activity,decreased
C[C@H]1O[C@@H](O[C@H]2CC[C@@]3(C)[C@@H](CC[C@]4(C)[C@@H]3C=C[C@]35OC[C@@]6(CCC(C)(C)C[C@H]63)[C@@H](O)C[C@]54C)[C@]2(C)CO)[C@H](O)[C@@H](O[C@@H]2O[C@H](CO)[C@@H](O)[C@H](O)[C@H]2O)[C@H]1O,,"Mus musculus, pair-fed, AAV8-TBG-SIRT1 shRNA hepatic SIRT1 knockdown, plasma","oral, high dose, 5 h",,AST activity,63.3 U/L and 47.6 U/L and 51.7 U/L and 51.9 U/L and 39.4 U/L and 34 U/L
Cc1cn(-c2cc(NC(=O)c3ccc(C)c(Nc4nccc(-c5cccnc5)n4)c3)cc(C(F)(F)F)c2)cn1,,human patients,"dose not given, 12 to 6 months, unit not given",baseline: placebo,ADAS-Cog maze time change,-3.78
CC(C)C[C@H](NC(=O)[C@H](CCC1CCCCC1)NC(=O)[C@@H]1CCCN1C(=O)c1ccc(F)cc1)C(=O)NC(C)(C)C(=O)N[C@@H](CC(C)C)C(=O)N[C@@H](CC(C)C)C(=O)NC(C)(C)C(=O)NC(C)(C)C(=O)NCCC(=O)NC1(CN(C)C)CCC1,,small unilamellar vesicles,concentration not given,,calcein leakage,24.4%
O=C(O)/C=C/C(=O)O.Oc1cccc2[nH]cc(CCNCc3ccccc3)c12,,C57BL/6J mice,"subcutaneous, 0.1 mg/kg, 30 min",,distance travelled,2900 ± 371 cm
COc1cc2nccc(Oc3ccc(NC(=O)c4cc5c(n(-c6ccccc6)c4=O)CCCC5=O)nc3)c2cc1OC,,"MOLM-13 luc/gfp xenograft, mice","diet, 0.004% in feed",baseline: treated over control,median survival ratio,1.33
CCCCC/C=C\C/C=C\C/C=C\Cc1ccccc1CCCC(=O)N[C@H](C)CO,"mechanical hypersensitivity, electronic von Frey","male CD1 mouse, CFA inflammatory pain, ipsilateral paw",1 mg/kg,baseline: vehicle,duration of effect,10 to 30 min
Clc1cc2c(cc1Cl)Oc1cc(Cl)c(Cl)cc1O2,"RNA-Seq, refers to: Tbxa2r","Sprague-Dawley rat, female, liver",10 µg/kg,baseline: vehicle,mRNA fold change,2.1 fold
CCCCCN1C[C@H](O)[C@@H](O)[C@H](O)[C@@H]1CO,,Hexb-/- mouse,300 mg/kg/day,baseline: low dose,median survival increase,7%
c1ccc2c(c1)Nc1ccccc1S2,,CT26 tumour-bearing mice,"intraperitoneal, 100 mg/kg equivalents daily, day 5",,tumour volume,647 mm³
